Measured values pooled from the literature.
Lines come from different studies, so protocols differ. Numbers after ± are the reported error.

`Cc1ccc([C@@H]2O[C@H](CO)[C@@H](O)[C@H](O)[C@H]2O)cc1Cc1ccc(-c2ccc(F)cc2)s1`: “urinary phosphate excretion change” -42.6 mg (measured: inorganic phosphorus; Japanese type 2 diabetes patients; 100 mg, day 18, 24 h urine collection; baseline: baseline).
With `Cc1nonc1OCCNc1cc(N2CCOCC2)ccc1[N+](=O)[O-]` the thermodynamic solubility was < 4.29 µM (aqueous buffer; pH 7.4).
The AUC(0-4) of `Cc1cc(Nc2cc3ncccc3c(N[C@@H]3C[C@H]4CC[C@@H](C3)N4CCC#N)n2)n[nH]1` is reported as 0.525 ng·h/mL (human, plasma; 20 mg, day 14, geometric mean).
`C1=C/COCc2cc(ccc2OCCN2CCCC2)Nc2nccc(n2)-c2cccc(c2)COC/1`: “stability relative error” 6.15% (rat plasma; 600 ng/mL, 24 h, 4 °C; baseline: nominal concentration).
For `CCCCOc1ccc([C@H]2CC[C@H](CCC)CC2)c(F)c1F`, “median fetal accumulation” read 0.277 ng/g (rat, fetus; 1000 ng/mL in perfusate, middle dose, mixture of 21 LCMs).
For `Cn1cc([C@H]2C[C@H]3CSC(N)=N[C@@]3(c3ccc(F)cc3F)CO2)cn1`, the plasma concentration was 223 nM (male 129/SVE mouse, plasma; subcutaneous, 10 mg/kg, 6 h).
`CCn1c(=O)c(-c2cc(NC(=O)Nc3ccccc3)c(F)cc2Br)cc2cnc(NC)cc21` — result for “participants with drug-related TEAE”: 12.5% (measured: lipase increased; healthy human, matched to moderate hepatic impairment; oral, 50 mg single dose).
For `C=CC(=O)Nc1cc(Nc2nccc(-c3cn(C)c4ccccc34)n2)c(OC)cc1N(C)CCN(C)C`, “incidence of treatment-related AEs” read 3% (measured: white blood cell count decreased; EGFR-mutant MET-altered NSCLC patients; oral, dose not given, AE grade ≥3, all).
Under “class-switched memory B cell change”, `Cn1cc(Nc2nccc(-c3ccc4c(c3)CN(C3COC3)CC[C@H]4NC(=O)c3cn(C(C)(C)C)nn3)n2)cn1` is recorded as 97% (human, whole blood; 50 mg twice daily, day 7; baseline: pre-dose baseline).
`COc1ccc2c(c1)CN(C(=O)CCN1CCC(Cc3ccccc3)CC1)CC[S@@+]2[O-]` has a QTc interval of 255 ± 12 ms (telemetry; conscious male beagle dogs; intravenous, 4 mg/kg, 0.5 h).
`CNCc1ccc(-c2[nH]c3cc(F)cc4c3c2CCNC4=O)cc1` has a nausea incidence of 0% (human patients; oral, 600 mg twice daily, grade 5).
The k2 of `O=C(OC(C(F)(F)F)C(F)(F)F)N1CCN(Cc2cccc(Oc3ccccc3)c2)CC1` is reported as 0.081 min⁻¹ (PET blocking study; rhesus monkey, brain HIP; 0.01 mg/kg, compound pretreatment, added: [18F]T-401 tracer).
`CCCCC[C@H](O)CC[C@@H]1[C@H]2Cc3cccc(OCC(=O)O)c3C[C@H]2C[C@H]1O` — result for “geometric mean Cmax”: 0.61 ng/mL (LC-MS/MS; Japanese PAH patients, plasma; inhaled, 54 µg, background ERA therapy).
For `Cc1ccc(Sc2ccccc2N2CCNCC2)c(C)c1`, “participants with TEAE” read 0% (measured: Somnolence; healthy adult men; oral, 20 mg daily, 12 days).
`CCOc1c([C@H](C)n2nc(C)c3c(N)ncnc32)cc(Cl)c(F)c1[C@@H]1CNC(=O)C1` — result for “observations with HR above 100 bpm”: 0% (ECG; previously treated B-cell malignancy patients; oral, 5 mg once daily, baseline below thresholds).
For `C=CC(=O)Nc1cc(Nc2nccc(-c3cn(C)c4ccccc34)n2)c(OC)cc1N(C)CCN(C)C`, the recovery was 53.3% (storage stability; human dried blood spot; 30 d, on ice, HQC level).
For `CC(C)(CO)c1cc2cc(NC(=O)C3(c4ccc5c(c4)OC(F)(F)O5)CC3)c(F)cc2n1C[C@@H](O)CO`, the AUC reduction was 43% (pregnant women with cystic fibrosis, plasma; dose not given; baseline: non-pregnant individuals).
For `COc1cc([C@@H]2[C@H]3CO[C@@]4(O)C(=O)[C@@H]2C=C([C@H]2Oc5cc(O)cc(O)c5C(=O)[C@@H]2O)[C@@H]34)ccc1O`, the AUC(0-4h) was 0.2 µM·h (FVB wild-type mice, plasma; oral gavage, 500 mg/kg silymarin, geometric mean).
The plasma concentration of `Cc1c(-c2ccc(N3CCc4cccc(C(=O)Nc5nc6ccccc6s5)c4C3)nc2C(=O)O)cnn1CC12CC3(C)CC(C)(C1)CC(OCCNCC[C@H](O)CO)(C3)C2` is reported as 1.35 ng/mL (anaesthetized male beagle dog; iv infusion, 0.3 mg/kg/min, 120 min).
